Results from different studies.
A part holds a random share of what one study measured. Changes are numbered by the printed parent chain.

Set 1
Target: Interferon regulatory factor 3, full length, phosphomimetic (IRF3, Homo sapiens, UniProt Q14653, residues 1-427, S386D/S396D/S398D/S402D/T404D/S405D)
Technique: protein-binding microarray
Form: double-stranded DNA, one strand shown
Matrix: in vitro
Concentration: 2540 nM top
Setting: 60-bp whole probe
Added: salmon DNA 0.4 mg/ml
Reference: random background probes
Reading: higher = stronger binding
Constant ends, left off below: GCCTAGCAC … GTCTTGATTCGCTTGACGCTGCTG
Target sequence (chain): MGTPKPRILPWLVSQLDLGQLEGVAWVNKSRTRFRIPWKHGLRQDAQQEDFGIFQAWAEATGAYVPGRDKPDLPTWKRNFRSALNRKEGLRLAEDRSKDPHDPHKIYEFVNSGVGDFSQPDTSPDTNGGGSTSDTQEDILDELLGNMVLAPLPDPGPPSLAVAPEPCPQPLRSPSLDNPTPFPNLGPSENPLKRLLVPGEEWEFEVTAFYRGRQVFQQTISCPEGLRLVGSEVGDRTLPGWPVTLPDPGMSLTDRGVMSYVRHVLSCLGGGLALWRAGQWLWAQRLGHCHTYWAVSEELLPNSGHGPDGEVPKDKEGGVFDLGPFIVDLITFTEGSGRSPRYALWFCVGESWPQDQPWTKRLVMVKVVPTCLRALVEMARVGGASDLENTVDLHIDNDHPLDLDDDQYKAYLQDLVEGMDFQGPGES
`TTAGATATCGTGTATCGATTAGTGCTA`: “fitted relative affinity” 0.263 z-score.
`CCCATGCTGGATGAAGTACAGTGCTAG`: “fitted relative affinity” -0.0685 z-score.
`TTAGATATCGTGACTGGATTAGTGCTA` — result for “fitted relative affinity”: -0.354 z-score.
For `TTAGATATCAGGTATCGATTAGTGCTA`, “fitted relative affinity” read 0.851 z-score.
Under “fitted relative affinity”, `GGCGATTTCGGGACTGGAGACGTGCTA` is recorded as 1.54 z-score.

Set 2
Target: CCND2, cyclin fold, Cln2 fusion (human)
Technique: yeast growth competition, sequencing
Matrix: yeast
Setting: weak parent motif
Reference: not given
Reading: higher = stronger binding
Starting sequence: GMNC docking peptide (human); KNAKRNLSSEFAN
`KNAKRNLSKEFAN [S9K]`: “normalised enrichment score” 0.318.
`KSAKRNLSSEFAN [N2S]` — result for “normalised enrichment score”: 0.855.
`KNAKRLLSSEFAN [N6L]` — result for “normalised enrichment score”: -0.515.

Set 3
Target: Prothrombin, mature alpha-thrombin (F2, Homo sapiens, UniProt P00734)
Technique: aptamer microarray, sandwich
Form: DNA with 2'F-ANA
Matrix: in vitro
Concentration: 200 nM
Setting: whole 15-mer aptamer, many near background
Added: Cy3 exosite-II aptamer, 400 nM
Reading: higher = stronger binding
Under “mean fluorescence intensity”, `GGTTGGTGTGGTTGG (2'F-ANA at 1 2 3 5 6 8 10 14)` is recorded as 47.6 a.u.
Under “mean fluorescence intensity”, `GGTTGGTGTGGTTGG (2'F-ANA at 2 4 6 7 8 9 11)` is recorded as 270 a.u.
`GGTTGGTGTGGTTGG (2'F-ANA at 1 3 6 7 9)` — result for “mean fluorescence intensity”: 239 a.u.
`GGTTGGTGTGGTTGG (2'F-ANA at 1 2 3 5 7 10 11)` — result for “mean fluorescence intensity”: 205 a.u.

Further values, each from its own experiment
`PhoQ, residues 284 288 289 292 302 303 SACGEM` has a fold induction of 0.845 (PhoP, residues 12 14 15 18 19 SPWRL (Escherichia coli, UniProt P23836); Sort-seq, item: YFP reporter; E. coli; PhoQ-PhoP variant library, added: 10 µM Mg2+; reference: high Mg2+ state, higher = stronger signaling).
